Measured values gathered from unrelated publications.
Numbered parts are unrelated; each lists some results of a single study. Values joined by “and” are separate records of one study, mostly repeats; a detail may differ.
Sequence of UniProt P35372 (whole entry, looked up): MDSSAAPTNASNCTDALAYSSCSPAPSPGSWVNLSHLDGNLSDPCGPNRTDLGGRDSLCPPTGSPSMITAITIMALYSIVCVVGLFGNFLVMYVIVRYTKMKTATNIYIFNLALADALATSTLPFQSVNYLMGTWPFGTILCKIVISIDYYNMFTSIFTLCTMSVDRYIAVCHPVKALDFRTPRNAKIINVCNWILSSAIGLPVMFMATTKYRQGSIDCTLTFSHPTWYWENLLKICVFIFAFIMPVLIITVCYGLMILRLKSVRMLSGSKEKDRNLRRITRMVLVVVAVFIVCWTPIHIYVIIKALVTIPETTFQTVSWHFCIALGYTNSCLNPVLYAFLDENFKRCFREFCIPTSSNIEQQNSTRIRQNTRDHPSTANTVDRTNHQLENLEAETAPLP
Sequence of UniProt P23975 (whole entry, looked up): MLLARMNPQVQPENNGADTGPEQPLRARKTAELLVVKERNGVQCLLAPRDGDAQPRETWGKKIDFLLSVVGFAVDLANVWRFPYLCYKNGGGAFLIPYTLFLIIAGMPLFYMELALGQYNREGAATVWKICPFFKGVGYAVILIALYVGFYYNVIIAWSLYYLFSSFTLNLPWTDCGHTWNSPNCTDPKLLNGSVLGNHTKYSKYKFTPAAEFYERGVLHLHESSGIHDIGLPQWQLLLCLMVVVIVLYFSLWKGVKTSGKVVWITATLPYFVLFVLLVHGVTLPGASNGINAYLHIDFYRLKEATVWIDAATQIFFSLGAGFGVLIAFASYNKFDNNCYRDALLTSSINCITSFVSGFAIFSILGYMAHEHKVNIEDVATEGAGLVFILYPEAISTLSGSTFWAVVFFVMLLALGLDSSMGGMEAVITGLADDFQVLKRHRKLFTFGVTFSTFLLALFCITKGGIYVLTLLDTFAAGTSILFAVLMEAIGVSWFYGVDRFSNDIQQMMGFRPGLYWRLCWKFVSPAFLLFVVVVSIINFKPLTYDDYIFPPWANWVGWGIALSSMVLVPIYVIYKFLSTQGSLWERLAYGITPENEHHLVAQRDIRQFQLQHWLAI
Sequence of UniProt Q9BUB5 (whole entry, looked up): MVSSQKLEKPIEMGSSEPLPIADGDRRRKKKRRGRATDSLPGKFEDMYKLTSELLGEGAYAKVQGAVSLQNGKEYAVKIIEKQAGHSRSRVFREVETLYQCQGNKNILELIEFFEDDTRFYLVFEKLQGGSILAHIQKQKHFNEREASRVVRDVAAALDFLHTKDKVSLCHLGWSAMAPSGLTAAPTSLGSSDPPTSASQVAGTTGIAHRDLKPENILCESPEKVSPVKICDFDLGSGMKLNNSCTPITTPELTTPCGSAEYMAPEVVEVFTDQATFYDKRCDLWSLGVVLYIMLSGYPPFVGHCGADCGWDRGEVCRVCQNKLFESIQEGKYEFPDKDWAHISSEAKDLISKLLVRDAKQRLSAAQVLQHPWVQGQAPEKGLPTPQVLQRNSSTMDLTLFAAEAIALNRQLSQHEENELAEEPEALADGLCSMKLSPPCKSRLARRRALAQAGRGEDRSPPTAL
Sequence of UniProt P41145 (whole entry, looked up): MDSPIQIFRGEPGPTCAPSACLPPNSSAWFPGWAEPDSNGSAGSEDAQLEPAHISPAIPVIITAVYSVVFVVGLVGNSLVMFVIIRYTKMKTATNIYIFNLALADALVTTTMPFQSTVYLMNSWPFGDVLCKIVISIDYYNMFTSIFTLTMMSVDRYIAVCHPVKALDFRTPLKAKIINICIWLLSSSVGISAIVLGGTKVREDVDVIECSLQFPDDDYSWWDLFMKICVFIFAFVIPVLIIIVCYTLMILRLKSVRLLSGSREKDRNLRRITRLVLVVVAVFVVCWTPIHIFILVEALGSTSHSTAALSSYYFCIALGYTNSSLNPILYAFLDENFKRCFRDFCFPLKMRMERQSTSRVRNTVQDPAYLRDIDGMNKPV
Sequence of UniProt Q01959 (whole entry, looked up): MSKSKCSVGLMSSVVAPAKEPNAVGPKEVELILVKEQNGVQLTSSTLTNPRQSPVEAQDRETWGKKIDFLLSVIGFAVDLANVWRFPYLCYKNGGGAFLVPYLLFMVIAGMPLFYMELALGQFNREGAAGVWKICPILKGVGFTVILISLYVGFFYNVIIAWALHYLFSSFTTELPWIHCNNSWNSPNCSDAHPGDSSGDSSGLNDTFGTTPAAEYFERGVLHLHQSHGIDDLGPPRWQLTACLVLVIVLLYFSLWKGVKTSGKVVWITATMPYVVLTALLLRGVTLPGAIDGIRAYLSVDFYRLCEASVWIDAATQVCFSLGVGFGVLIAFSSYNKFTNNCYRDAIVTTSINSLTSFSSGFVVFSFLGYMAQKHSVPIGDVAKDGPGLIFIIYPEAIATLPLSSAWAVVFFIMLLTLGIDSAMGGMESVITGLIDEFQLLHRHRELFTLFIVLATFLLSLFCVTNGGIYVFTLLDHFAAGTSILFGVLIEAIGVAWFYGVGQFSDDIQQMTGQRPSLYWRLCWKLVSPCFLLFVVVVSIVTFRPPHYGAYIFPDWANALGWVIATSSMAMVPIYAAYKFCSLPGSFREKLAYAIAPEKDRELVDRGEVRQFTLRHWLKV

Block 1 — read-out: enzyme activity; action: inhibitor; concentration: 77 µM; reference: untreated; quantity: remaining activity
Target: DNA polymerase theta, ATPase domain (POLQ, Homo sapiens, UniProt O75417)
Sequence of UniProt O75417 (whole entry, unmodified, looked up): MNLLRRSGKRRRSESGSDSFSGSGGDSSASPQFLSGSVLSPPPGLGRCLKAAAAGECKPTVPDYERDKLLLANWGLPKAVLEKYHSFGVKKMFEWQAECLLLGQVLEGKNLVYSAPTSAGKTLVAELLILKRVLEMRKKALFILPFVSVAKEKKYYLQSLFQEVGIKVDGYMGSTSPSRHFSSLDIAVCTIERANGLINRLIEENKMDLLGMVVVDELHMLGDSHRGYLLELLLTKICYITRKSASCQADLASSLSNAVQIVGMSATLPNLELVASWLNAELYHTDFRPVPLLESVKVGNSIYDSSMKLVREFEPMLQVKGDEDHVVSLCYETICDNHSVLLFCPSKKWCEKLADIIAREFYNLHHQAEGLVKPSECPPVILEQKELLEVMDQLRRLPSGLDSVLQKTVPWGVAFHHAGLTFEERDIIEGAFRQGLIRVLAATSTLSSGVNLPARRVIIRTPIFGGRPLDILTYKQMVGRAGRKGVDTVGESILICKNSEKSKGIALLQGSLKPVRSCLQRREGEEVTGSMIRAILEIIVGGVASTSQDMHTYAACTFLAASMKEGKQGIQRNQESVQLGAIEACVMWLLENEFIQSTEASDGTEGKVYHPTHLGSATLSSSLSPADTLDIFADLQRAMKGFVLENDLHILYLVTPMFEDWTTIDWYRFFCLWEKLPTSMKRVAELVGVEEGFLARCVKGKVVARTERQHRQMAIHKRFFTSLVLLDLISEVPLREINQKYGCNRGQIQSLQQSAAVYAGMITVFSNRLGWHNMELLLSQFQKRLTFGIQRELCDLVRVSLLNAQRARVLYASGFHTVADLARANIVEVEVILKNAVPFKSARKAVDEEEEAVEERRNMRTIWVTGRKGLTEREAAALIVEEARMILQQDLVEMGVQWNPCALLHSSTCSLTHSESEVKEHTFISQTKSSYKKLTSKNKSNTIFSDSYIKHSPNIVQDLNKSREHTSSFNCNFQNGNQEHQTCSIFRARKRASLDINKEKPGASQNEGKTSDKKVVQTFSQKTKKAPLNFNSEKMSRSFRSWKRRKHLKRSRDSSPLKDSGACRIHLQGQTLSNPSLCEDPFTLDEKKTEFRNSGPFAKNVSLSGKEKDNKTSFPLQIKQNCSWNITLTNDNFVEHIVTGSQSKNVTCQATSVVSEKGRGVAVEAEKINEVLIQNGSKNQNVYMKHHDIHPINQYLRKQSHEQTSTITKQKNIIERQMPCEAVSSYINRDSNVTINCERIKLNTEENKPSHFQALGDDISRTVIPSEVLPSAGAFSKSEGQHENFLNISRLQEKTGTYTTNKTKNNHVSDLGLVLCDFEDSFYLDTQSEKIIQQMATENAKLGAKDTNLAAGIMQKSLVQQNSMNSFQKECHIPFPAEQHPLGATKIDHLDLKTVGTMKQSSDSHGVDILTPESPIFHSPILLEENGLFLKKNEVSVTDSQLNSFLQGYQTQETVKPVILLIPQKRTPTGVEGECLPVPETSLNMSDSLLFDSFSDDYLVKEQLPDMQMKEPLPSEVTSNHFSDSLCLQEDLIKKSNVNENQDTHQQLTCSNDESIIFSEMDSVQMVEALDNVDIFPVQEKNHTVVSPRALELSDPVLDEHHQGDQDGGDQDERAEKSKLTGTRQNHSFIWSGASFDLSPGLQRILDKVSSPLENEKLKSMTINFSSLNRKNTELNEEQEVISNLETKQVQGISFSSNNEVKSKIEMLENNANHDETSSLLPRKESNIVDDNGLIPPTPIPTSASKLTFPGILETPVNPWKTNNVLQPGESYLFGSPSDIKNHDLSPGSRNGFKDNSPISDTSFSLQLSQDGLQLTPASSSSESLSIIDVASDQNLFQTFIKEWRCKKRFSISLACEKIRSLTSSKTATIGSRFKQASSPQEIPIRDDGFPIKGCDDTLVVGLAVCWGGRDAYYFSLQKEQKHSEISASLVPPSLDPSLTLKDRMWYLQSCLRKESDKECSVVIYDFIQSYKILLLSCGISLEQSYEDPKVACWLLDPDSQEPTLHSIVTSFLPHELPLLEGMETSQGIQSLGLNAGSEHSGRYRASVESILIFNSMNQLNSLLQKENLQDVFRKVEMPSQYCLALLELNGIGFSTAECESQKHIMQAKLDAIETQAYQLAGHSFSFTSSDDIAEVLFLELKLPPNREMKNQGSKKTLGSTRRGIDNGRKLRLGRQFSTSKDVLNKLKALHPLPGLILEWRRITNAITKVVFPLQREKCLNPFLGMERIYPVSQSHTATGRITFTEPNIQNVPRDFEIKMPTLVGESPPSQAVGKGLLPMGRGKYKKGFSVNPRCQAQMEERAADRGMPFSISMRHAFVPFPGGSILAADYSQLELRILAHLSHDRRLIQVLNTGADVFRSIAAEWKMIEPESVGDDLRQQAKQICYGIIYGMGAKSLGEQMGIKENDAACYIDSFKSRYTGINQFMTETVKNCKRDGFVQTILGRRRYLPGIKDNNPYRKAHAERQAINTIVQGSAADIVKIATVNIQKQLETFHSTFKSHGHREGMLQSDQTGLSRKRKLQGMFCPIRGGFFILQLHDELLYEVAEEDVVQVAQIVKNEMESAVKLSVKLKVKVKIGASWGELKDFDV
C/C(=C\c1csc(C)n1)[C@@H]1C[C@@H]2O[C@]2(C)CCC[C@H](C)[C@H](O)[C@@H](C)C(=O)C(C)(C)[C@@H](O)CC(=O)O1: 100%
Cc1cc(O)ccc1Cl: 105%
CCNCC(O)c1cccc(O)c1 (centres unmarked): 103%
C[C@]1(C(=O)O)[C@@H]2CC[C@@H](O2)[C@@]1(C)C(=O)O: 87.5%
CCCC(C)(COC(N)=O)COC(=O)NC(C)C (centres unmarked): 98.8%

Block 2 — read-out: enzyme activity; action: inhibitor; concentration: 0.5 µM; reference: control; quantity: remaining activity
SMILES: CCn1cnc2c(Nc3cccc(Cl)c3)nc(N[C@H]3CCCC[C@H]3N)nc21
Calcium/calmodulin-dependent protein kinase type II subunit gamma (CAMK2G, Homo sapiens, UniProt Q13555): 104%
Myosin light chain kinase 2, skeletal/cardiac muscle (MYLK2, Homo sapiens, UniProt Q9H1R3): 95.2%
Mitogen-activated protein kinase 8 (MAPK8, Homo sapiens, UniProt P45983): 97.6%
Ephrin type-A receptor 8 (EPHA8, Homo sapiens, UniProt P29322): 93%
MAP kinase-interacting serine/threonine-protein kinase 1 (MKNK1, Homo sapiens, UniProt Q9BUB5): 101%

Block 3 — read-out: binding; method: radioligand binding; concentration: 10 µM; quantity: inhibition
Compound: CC(=O)C1=C(C)N(c2cccc(C(F)(F)F)c2)C(=O)N[C@@H]1c1ccc(C#N)nc1
Kappa-type opioid receptor (OPRK1, Homo sapiens, UniProt P41145): -13.6%
Sodium-dependent dopamine transporter (SLC6A3, Homo sapiens, UniProt Q01959): -0.342%
D(1B) dopamine receptor (DRD5, Homo sapiens, UniProt P21918): 0.739%
Sodium-dependent noradrenaline transporter (SLC6A2, Homo sapiens, UniProt P23975): -17.5%
Sodium-dependent serotonin transporter (SLC6A4, Homo sapiens, UniProt P31645): -2.61%
Mu-type opioid receptor (OPRM1, Homo sapiens, UniProt P35372): -5.41%

Block 4 — cell line: mouse MPNST tumor cells; method: high-content nuclear imaging; item: cell number; concentration: 10 µM; time: 12 h; notes: mean of 2 replicates; reference: plate mean; reading: higher = more cells; quantity: nuclei count
C[N+]1([O-])C2CC(OC(=O)C(CO)c3ccccc3)CC1C1OC12 (centres unmarked): 1.29 z-score
CCN(CC)C(C)C(=O)c1ccccc1 (centres unmarked): 2.16 z-score
CCN(C)C(=O)Oc1cccc([C@H](C)N(C)C)c1: 1.03 z-score and 1.16 z-score
Cc1cc(C(=O)CN2CCCC2)c(C)n1-c1ccc(F)cc1: 1.89 z-score
CCCN(CCC)[C@@H]1CCc2cccc(O)c2C1: 0.719 z-score
CC1=NN=C(c2ccc(N)cc2)c2cc3c(cc2C1)OCO3: 1.11 z-score
CC(C)[N+](C)(CCC(C(N)=O)(c1ccccc1)c1ccccc1)C(C)C: 2.33 z-score

Excerpt of the above (block 4):
CCN(C)C(=O)Oc1cccc([C@H](C)N(C)C)c1: 1.03 z-score and 1.16 z-score
Cc1cc(C(=O)CN2CCCC2)c(C)n1-c1ccc(F)cc1: 1.89 z-score
